{"data": "Results collected from several papers", "note": "A part holds a random share of what one study measured. Positions count from the first letter of the parent shown."}
{"data": "Block 1", "target": "Histone acetyltransferase KAT6A, winged helix 1, GST fusion (KAT6A, Homo sapiens, UniProt Q92794, residues 1-85)", "method": "protein binding microarray", "form": "double-stranded DNA, one strand shown", "sample": "in vitro", "tested at": "not given", "notes": "8-mer, flanks averaged, mean of 2 arrays, mostly near background", "relative to": "not given", "direction": "higher = stronger binding", "Residues (chain)": "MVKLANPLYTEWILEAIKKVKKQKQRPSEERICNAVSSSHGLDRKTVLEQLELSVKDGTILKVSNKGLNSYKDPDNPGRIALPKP"}
{"Oligonucleotide": "ACGCACAT", "E-score": 0.0516}
{"Oligonucleotide": "GAATTGCA", "E-score": -0.226}
{"Oligonucleotide": "AAGCGAGC", "E-score": 0.0941}
{"Oligonucleotide": "ACAGAATC", "E-score": -0.145}
{"Oligonucleotide": "AAGATTTC", "E-score": 0.0191}
{"Oligonucleotide": "AGTTTAAA", "E-score": -0.16}
{"Oligonucleotide": "TTACTGAA", "E-score": 0.00143}
{"Oligonucleotide": "AGCAGCTG", "E-score": -0.203}
{"Oligonucleotide": "CTGGTGTC", "E-score": -0.322}
{"Oligonucleotide": "ACGATAAT", "E-score": -0.0719}
{"Oligonucleotide": "AATCAAAT", "E-score": -0.119}
{"Oligonucleotide": "ACGGTACA", "E-score": 0.0764}
{"Oligonucleotide": "GTTTCGTA", "E-score": -0.0797}
{"Oligonucleotide": "ATGTAGTG", "E-score": -0.224}
{"Oligonucleotide": "ACCGCGCG", "E-score": 0.44}
{"Oligonucleotide": "CTACGATC", "E-score": 0.0112}
{"Oligonucleotide": "CCGAGGCC", "E-score": 0.262}
{"Oligonucleotide": "ACGGATAA", "E-score": 0.157}
{"Oligonucleotide": "ATCGATAG", "E-score": -0.153}
{"Oligonucleotide": "AAAGTTGT", "E-score": 0.026}
{"Oligonucleotide": "CCGACCGC", "E-score": 0.359}
{"Oligonucleotide": "CTAAGACC", "E-score": -0.101}
{"Oligonucleotide": "AAGAACAT", "E-score": -0.153}
{"Oligonucleotide": "CTTCCAAA", "E-score": -0.148}
{"Oligonucleotide": "GTCATAAA", "E-score": -0.209}
{"data": "Block 2", "target": "RING finger protein unkempt homolog, zinc fingers 1-6, GST-SBP tag (UNK, Homo sapiens, UniProt Q9C0B0, residues 30-357)", "method": "RNA Bind-n-Seq", "form": "RNA", "sample": "in vitro", "tested at": "not given", "notes": "RNA with constant flanks, human-mouse chimeric sites, ends assumed", "relative to": "input RNA pool", "direction": "higher = stronger binding", "shared flanks, not repeated": "GGGAGUUCUACAGUCCGACGAUC … CAACAGAGGAUUGAGCAUCA", "sequence of UniProt Q9C0B0 (30-357, looked up)": "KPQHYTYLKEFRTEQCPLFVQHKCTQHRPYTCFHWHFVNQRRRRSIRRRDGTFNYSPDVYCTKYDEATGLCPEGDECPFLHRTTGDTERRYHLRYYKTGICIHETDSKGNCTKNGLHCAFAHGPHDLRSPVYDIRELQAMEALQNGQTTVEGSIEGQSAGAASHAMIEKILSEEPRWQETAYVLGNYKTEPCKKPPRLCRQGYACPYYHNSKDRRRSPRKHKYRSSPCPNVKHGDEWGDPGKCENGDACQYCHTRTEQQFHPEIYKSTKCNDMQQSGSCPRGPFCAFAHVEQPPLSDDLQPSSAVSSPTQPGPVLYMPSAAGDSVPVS"}
{"Oligonucleotide": "GUUGCCAGCUUCCGGUUCCGUUGGGCUCGGUUCUCUCCUGAGCUACGUGUCUCUACGUUUUAGGUGUGCCAUCCAACGGCAGUCAUGCAGGUAAUGCAGUUUGUGGAGCCCAGCCGGCAG", "bound/input enrichment [ratio]": 0.171}
{"Oligonucleotide": "AAAGUGGACUAUGGCGAGUACAUGGAUAAAAAUAAUGUGAGGCGGCAAGCAACAACAAUCAUAGCUGAUAAUAUUAUAUUUCUGAGUGACCAGACAAAAGAAAAGGCAUAGAACGGAUGA", "bound/input enrichment [ratio]": 3.99}
{"Oligonucleotide": "GCAUAUGGUUAUCGAGGAAAGGACUGUAGAGCGAAUGUAUACCUGCUUCCGACCGGGGAGAUAGUUUAUUUUAUCGCCUCAGUGGUAGUCCUGUUUAAUUAUGAGGAGAGGACUCAGCGA", "bound/input enrichment [ratio]": 0.289}
{"Oligonucleotide": "CUGUGACCACAAGAUCCUACCUGAGUGGCAGCUGAAGUUGACUCCCUCUCCUUGCCUGAACCCCCCCCUUUUGUUCCCCCAUCCCCCAGUGUCGGCUGAGAUGUUGCCUCUGCACGGUUC", "bound/input enrichment [ratio]": 1.32}
{"Oligonucleotide": "AUAAAGGCUAUGUUGAGUGGCCCAGGUCAGUUUGCUGAGAAUGAAACCAACGAGGUCAAUUUUAGAGAGAUCCCCUCACAUGUGCUAUCAAAAGUGUGCAUGUAUUUUACGUACAAGGUC", "bound/input enrichment [ratio]": 0.214}
{"Oligonucleotide": "CAGCCUCAGAGCCCAGACUUCCUGGAUAUUACCAACCCUAAAGCGGUAUUAGAAAACGCAUUGAGAAACUUCGCCUGUCUGACGACUGGAGAUGUGAUUGCCAUCAACUACAAUGAGAAG", "bound/input enrichment [ratio]": 0.335}
{"Oligonucleotide": "AUAUUUCAUAUUGCAAAGAUGUUUACAAGUAUUUUAAUUUAAGUUCAGUGAACUUUUUUGUAGCUGGGUUAAAUCUUUUUAUUUUAGGUAUGGCCUUAUGGCAAAGACACUGUAUUAUUU", "bound/input enrichment [ratio]": 2.3}
{"Oligonucleotide": "GGAAGUACAAUGAUGGAGAUUGAUGGUGACAAAGGCAAACAAGGCGGGCCCACCUACUACAUAGACACCAAUGCCCUGCGUGUUCCGAGGGAGAACAUGGAGGCCAUCUCACCACUCAAG", "bound/input enrichment [ratio]": 0.226}
{"data": "Block 3", "target": "CCNE2, cyclin fold, Cln2 fusion (human)", "method": "yeast growth competition, sequencing", "sample": "yeast", "notes": "weak parent motif", "relative to": "not given", "direction": "higher = stronger binding", "parent": "MASTL docking peptide (human); PMIAKNLMCELDE"}
{"Substitution": "PMIAKNLMCHLDE [E10H]", "normalised enrichment score": 0.23}
{"Substitution": "PMIAKNDMCELDE [L7D]", "normalised enrichment score": -0.331}
{"Substitution": "PMIAKNLMCLLDE [E10L]", "normalised enrichment score": 0.31}
{"Substitution": "PMIAENLMCELDE [K5E]", "normalised enrichment score": -0.222}
{"Substitution": "PMICKNLMCELDE [A4C]", "normalised enrichment score": 0.0718}
{"Substitution": "PMVAKNLMCELDE [I3V]", "normalised enrichment score": -0.277}
{"Substitution": "PMRAKNLMCELDE [I3R]", "normalised enrichment score": 0.01}
{"Substitution": "PMIADNLMCELDE [K5D]", "normalised enrichment score": -0.157}
{"Substitution": "PMIAKNLMCELLE [D12L]", "normalised enrichment score": 0.104}
{"Substitution": "PMIAKNLNCELDE [M8N]", "normalised enrichment score": -0.331}
{"Substitution": "PMIAKNLMCELRE [D12R]", "normalised enrichment score": 0.299}
{"Substitution": "PMIAKNLMCELPE [D12P]", "normalised enrichment score": -0.352}
{"Substitution": "PMWAKNLMCELDE [I3W]", "normalised enrichment score": -0.162}
{"Substitution": "PMIAKNLMCESDE [L11S]", "normalised enrichment score": 0.116}
{"Substitution": "PMIAKNFMCELDE [L7F]", "normalised enrichment score": -0.0161}
{"Substitution": "PMIAKNLMCSLDE [E10S]", "normalised enrichment score": -0.294}
{"Substitution": "PMIAKNLMCEGDE [L11G]", "normalised enrichment score": 0.0132}
{"Substitution": "PMIAKNLMQELDE [C9Q]", "normalised enrichment score": 0.27}
{"Substitution": "PGIAKNLMCELDE [M2G]", "normalised enrichment score": -0.0217}
{"Substitution": "PMIAKNLMCMLDE [E10M]", "normalised enrichment score": -0.0781}
{"Substitution": "PMIAKNLMCELCE [D12C]", "normalised enrichment score": 0.105}
{"data": "Block 4", "target": "Fragile X messenger ribonucleoprotein 1, C-terminal low-complexity region (Fmr1, Mus musculus, UniProt P35922)", "method": "RNA Bind-n-Seq", "form": "RNA", "sample": "in vitro", "tested at": "200 nM", "notes": "whole 134-nt RNA, ends assumed", "with": "150 mM LiCl", "relative to": "input library", "direction": "higher = stronger binding", "all molecules": "7-deaza-guanosine replaces G", "shared flanks, not repeated": "GGGAGUUCUACAGUCCGACGAUC … UGGAAUUCUCGGGUGUCAAGG"}
{"Oligonucleotide": "ACCAUGCAGGUGGGCAUCUUUGGGAAGUGGGGCAAGGGGGGGAUAGGGAGGGGGGUAACACUUUGGGAAAAAGUGGUCCCAGGUCGUUUC", "log2 enrichment": 1.69}
{"Oligonucleotide": "UCCUGUGCUACACAUCGUAUGUACCGAAUCAAAGUGUGUGUGUGAAAUGUGUGUGUGAAAAAAGUAUUAUGUUACGCCGUUCGGAUCUGC", "log2 enrichment": -1.95}
{"Oligonucleotide": "UAACUUUAGAGGAGGAUCUGAUGGAUAUGGCAGUGGACGGGGAUUUGGGGAUGGCUAUAAUGGGUAUGGAGGAGGACCUGGAGGUGGCAA", "log2 enrichment": -0.214}
{"Oligonucleotide": "UCAAGUCCUGUGCUACACAUCGUAUGUACCGAAUCGGUUUGGGUUUGGGUUUGGGAAAGUAUUAUGUUACGCCGUUCGGAUCUGCACUUC", "log2 enrichment": -1.96}
{"Oligonucleotide": "GUCCUGUGCUACACAUCGUAUGUACCGAAUCGGGGUUUUGGGUUUUGGGGUUUUGGGGAAAGUAUUAUGUUACGCCGUUCGGAUCUGCAC", "log2 enrichment": -0.233}
{"Oligonucleotide": "GGCAAGAGGAGGAACGACGUAGAAGAGAGGAAGAGAUGAUGAUUCGUCAACGUGAGAUGGAAGAACAAAUGAGGCGCCAAAGAGAGGAAA", "log2 enrichment": 2.06}
{"Oligonucleotide": "AAGUCCUGUGCUACACAUCGUAUGUACCGAAUCAAAUUUAAAUUUAAACCCCCAAAAAAGUAUUAUGUUACGCCGUUCGGAUCUGCACUU", "log2 enrichment": 1.08}
{"Oligonucleotide": "UACUAUGAAGCCUUGUGCAAAUCCCUCGACUGGCAGAUAGACGUGGACCUACUCAAUAAAAUGAAGAAGGCAAAUGAAGAUGAGUUGAAG", "log2 enrichment": -1.09}
{"note": "Some of these lines once more (block 3):"}
{"Substitution": "PMIAKNDMCELDE [L7D]", "normalised enrichment score": -0.331}
{"Substitution": "PMIAKNLMCLLDE [E10L]", "normalised enrichment score": 0.31}
{"Substitution": "PMIAENLMCELDE [K5E]", "normalised enrichment score": -0.222}
{"Substitution": "PMICKNLMCELDE [A4C]", "normalised enrichment score": 0.0718}
{"Substitution": "PMVAKNLMCELDE [I3V]", "normalised enrichment score": -0.277}
{"Substitution": "PMRAKNLMCELDE [I3R]", "normalised enrichment score": 0.01}
{"Substitution": "PMIADNLMCELDE [K5D]", "normalised enrichment score": -0.157}
{"Substitution": "PMIAKNLMCELLE [D12L]", "normalised enrichment score": 0.104}
{"Substitution": "PMIAKNLNCELDE [M8N]", "normalised enrichment score": -0.331}
